Measurements from different studies.
“And” joins repeats or separate records; there may be more than shown. ± marks the error that the study gave. ≈ marks a conversion by molar mass, not a printed value.

SMILES	assay	system	setting	scale	quantity	value
C[C@]12CC[C@@H]3c4ccc(O)cc4CC[C@H]3[C@@H]1C[C@@H](O)[C@@H]2O	GC-MS	breast cancer women on NSAI, serum	vaginal, 0.03 mg daily, 8 h, day 28	–	mean serum concentration	0.0102 ng/mL
C[C@@H](O)[C@H]1C(=O)N2C(C(=O)O)=C(S[C@@H]3CN[C@H](C(=O)N(C)C)C3)[C@H](C)[C@H]12	microdialysis	pig, Danish Landrace, cortical bone	intravenous, 1000 mg over 10 min, 450 min dosing interval, together with: 2.0 µg/mL MIC	baseline: dosing interval	time above MIC	10%
Cc1c(CN2CCN(C(=O)[C@H](C)O)CC2)sc2c(N3CCOCC3)nc(-c3cnc(N)nc3)nc12	–	patients, plasma	oral, dose not given, population PK model	–	peripheral volume of distribution (V2/F)	9.13 L/kg
O=C(O)Cc1ccccc1Nc1c(Cl)cccc1Cl	–	rat, plasma	oral, 10 mg/kg, together with: sesamin 100 mg/kg	–	AUC(0-24 h)	6420 ± 3780 ng·h/mL
CCCOc1ccc([C@H]2CNC(=O)N2c2ccc3[nH]cnc3c2)cc1	–	human, plasma	oral, 50 mg, single dose, fasted	–	AUC(0-inf)	355 ng·h/mL
CC(C)[C@H](NC(=O)[C@@H]1CCCN1C(=O)[C@H](CCCNC(=N)N)NC(=O)[C@H](CS)NC(=O)[C@H](Cc1c[nH]c2ccccc12)NC(=O)[C@H](CCCNC(=N)N)NC(=O)[C@@H](Cc1ccccc1)NC(=O)[C@H](Cc1c[nH]cn1)NC(=O)[C@H](CCC(=O)O)NC(=O)[C@H](CS)NC(=O)[C@H](CS)NC(=O)[C@H](CCCCN)NC(=O)[C@@H]1CC(=O)N[C@@H](CCCNC(=N)N)C(=O)N[C@@H](C(C)C)C(=O)N[C@@H](CC(=O)O)C(=O)N[C@H](Cc2ccc(O)cc2)C(=O)N1)C(N)=O [technetium-99m labelled]	–	C57 mouse, female, B16/F1 melanoma, blood	intravenous, 2 h, together with: NDP-MSH 10 µg co-injected	–	tissue uptake	0.55 ± 0.35 %ID/g
Cn1nnc2c(C(N)=O)ncn2c1=O	–	FVB mice, all strains	intravenous, 50 mg/kg	–	plasma half-life	0.7 h
Cc1c2c(n(-c3ccc(Cl)cc3Cl)c1-c1ccc(OS(=O)(=O)CCC(F)(F)F)cc1)CCN(N1CCCCC1)C2=O	–	cynomolgus monkey 4, plasma	intravenous infusion, 0.2 mg/kg, 90 min, PET study midpoint	–	plasma concentration	57 nM
O=C(NC[C@H]1CN(c2ccc(N3CCOCC3=O)cc2)C(=O)O1)c1ccc(Cl)s1	–	Sprague-Dawley rat, male, plasma	oral, 10 mg/kg, together with: naringenin 10 mg/kg/day oral, 2 weeks	–	MRT(0-t)	6.53 ± 1.41 h
FC(F)(F)c1cccc(CNC2CCN(CCc3ccccc3)CC2)c1	–	0.1 M sodium acetate with 0.01% Triton X-100	pH 5.5	–	maximum solubility	100 µM
Cn1c(-c2ccc(C(N)=O)cc2F)nnc1C(C)(C)Oc1c(F)cc(Cl)cc1F	–	young non-Japanese adults, plasma	oral, 20 mg single dose, day 1, high-dose multiple-dose study	–	half-life range over subjects	10.5 to 27.4 h
CN(C)C(=O)c1cc2cnc(Nc3ccc(N4CCNCC4)cn3)nc2n1C1CCCC1	–	human, mild renal impairment	oral, 400 mg, 0 to 144 h, geometric mean	–	amount excreted in urine	19.9 mg
[2H]C([2H])([2H])Oc1cc2c(cc1OC([2H])([2H])[2H])C1CC(=O)C(CC(C)C)CN1CC2 (stereo not drawn)	item: deuterated α-HTBZ	healthy human volunteers, plasma	oral, 6 mg single dose, standard meal	–	dose-normalized AUC(0-inf)	16.3 ng·h/mL
C=C(C)[C@@H]1CC[C@]2(NCCN3CCS(=O)(=O)CC3)CC[C@]3(C)[C@H](CC[C@@H]4[C@@]5(C)CC=C(C6=CC[C@@](CF)(C(=O)O)CC6)C(C)(C)[C@@H]5CC[C@]43C)[C@@H]12	LC-MS/MS	HIV-1-infected treatment-naive adults, plasma	oral, 140 mg once daily, day 7, monotherapy	–	trough concentration	800 ng/mL
O=C([O-])CN(CC(=O)[O-])CC(=O)[O-].[Fe+3]	square wave voltammetry	metal chelate	concentration not given, pH 7.4, anaerobic	–	reduction potential vs NHE	464 mV
C=CC(N)CCC(=O)O (stereo not drawn)	–	male Sprague-Dawley rat, plasma	oral, 1.0 mg/kg, formulation 5, together with: Sar 200 mg/kg	–	Cmax	920 ± 31 ng/mL
Cc1ccc(-c2cc(C(F)(F)F)nn2-c2ccc(S(N)(=O)=O)cc2)cc1	–	male ICR mouse, liver	oral, 3 mg/kg, 24 h	–	AUC	42600 ng·h/mL
C[C@](N)(Cc1ccc(O)c(O)c1)C(=O)O	–	supercritical carbon dioxide	5 h, 313 K, 15 MPa, density 781.2 kg/m3	–	solubility	113 µg/mL (≈ 534 µM)

SMILES	assay	system	setting	scale	quantity	value
Cn1cc(-c2ccncc2)c(-c2ccc(OCc3ccc4ccccc4n3)cc2)n1	–	rhesus monkey, plasma	subcutaneous, 0.67 mg/kg, 1 h	–	plasma concentration	136 ng/mL
C=CC(=C)CC[C@]1(C)[C@H](C)C[C@H](OC(=O)CCCCCCCCC)[C@@]23C(=C[C@H](OC(C)=O)C[C@@H]12)[C@@H](OC(C)=O)O[C@H]3OC(C)=O	haemolysis	–	20 µM	–	haemolysis	5.1%
CCOc1ccc(Cc2cc([C@]34OC[C@](CO)(O3)[C@@H](O)[C@H](O)[C@H]4O)ccc2Cl)cc1	–	human, type 2 diabetes, moderate renal impairment, urine	oral, 15 mg, 0 to 96 h	–	dose excreted unchanged	0.646%
CCCS(=O)(=O)Nc1ccc(F)c(C(=O)c2c[nH]c3ncc(-c4ccc(Cl)cc4)cc23)c1F	rapid equilibrium dialysis	100% human plasma	350 µM, 4 h	–	unbound fraction in incubation	1.17e-05 ± 2.5e-06
O=C(/C=C/c1ccc(O)c2c1[C@H](C(=O)O)[C@@H](c1ccc(O)c(O)c1)O2)O[C@H](Cc1ccc(O)c(O)c1)C(=O)O	UPLC-MS/MS	Wistar rat, microcirculation dysfunction model, plasma	oral, 100 mg/kg Salvia miltiorrhiza stem-leaf extract FS	–	MRT(0-inf)	8.87 ± 3.38 h
COc1cccc(N2CCN(C3=Nc4c(F)cccc4[C@H](CC(=O)O)N3c3cc(C(F)(F)F)ccc3OC)CC2)c1	–	healthy women, plasma	intravenous infusion, 240 mg, day 1, single dose, 30-min infusion	–	mean residence time	7.31 ± 3.31 h
Cc1cc(C)c2c(c1)[C@@H](N(Cc1cc(C(F)(F)F)cc(C(F)(F)F)c1)c1nnn(C)n1)CCCN2C[C@H]1CC[C@H](C(=O)O)CC1	–	human, plasma	oral, 300 mg once daily, steady state, geometric mean	–	Vss/F	1350 L
CCCC[C@H](NC(C)=O)C(=O)N[C@H]1CCC(=O)NC[C@@H](C(=O)N[C@@H](Cc2c[nH]c3ccccc23)C(N)=O)NC(=O)[C@H](CCCNC(=N)N)NC(=O)[C@@H](Cc2ccccc2)NC(=O)[C@H](Cc2c[nH]cn2)NC1=O	–	CD Sprague-Dawley rat, male, plasma	subcutaneous, 5.0 mg/kg/day, day 1	–	AUC(0-t)	4300 ng·h/mL
CN(C)C(=O)c1cc2cnc(Nc3ccc(N4CCNCC4)cn3)nc2n1C1CCCC1	–	human, plasma	oral, 600 mg daily for 14 days, day of surgery	–	unbound plasma concentration	490 nM
CCCCCCCCCCCCCNCC(=O)N(CC(=O)N(CCCCN)CC(=O)N(CCN)CC(=O)N(CC(N)=O)Cc1ccccc1)Cc1ccccc1	preparative RP-HPLC C18	water to acetonitrile gradient	0.05% TFA in eluent	higher = more hydrophobic	acetonitrile at elution	66.9%
Cc1ccc(NC(=O)c2ccc(CN3CCN(C)CC3)cc2)cc1Nc1nccc(-c2cncc(-c3oncc3C)c2)n1	–	older healthy human adults, plasma	oral, 75.0 mg single dose, fed, mean	–	AUC(0-t)	58400 ng·h/mL
Nc1ccc(-c2nc(-c3ccc(Oc4ccc(C(F)(F)F)cc4)cc3)no2)cc1	–	ICR mice, female, plasma	oral, 50 mg/kg	–	distribution half-life	13 h
Cc1nc2cccc(OCC(C)(C)C(=O)NC(C)C)c2c(N)c1C(=O)O	–	male Sprague-Dawley rat, plasma	oral food admix, 100 mg/kg/day, day 7, 90-day dietary study	–	AUC(0-24 h)	915 ng·h/mL
C[C@@H](Oc1ccc(S(C)(=O)=O)cc1C(=O)N1C[C@@H]2C[C@]2(c2cc(C(F)(F)F)on2)C1)C(F)(F)F	–	human male, plasma	oral, 10 mg once daily, 312 h	–	trough concentration	107 nM
CS(=O)(=O)OC[C@H](O)[C@@H]1CO1	–	Wistar rat, male, red blood cells and plasma	intraperitoneal, 500 mg/kg treosulfan, 4 h	–	RBC/plasma partition coefficient	0.57 and 0.64 and 0.79
CO/N=C1\CCc2ccccc2C(=O)Nc2ccccc21	nephelometry	aqueous buffer	30 min, pH 6.5	–	kinetic solubility	> 100 µg/mL
CCC[C@@]1(CCc2ccccc2)CC(O)=C([C@H](CC)c2cccc(NS(=O)(=O)c3ccc(C(F)(F)F)cn3)c2)C(=O)O1	–	Sprague Dawley rat, male, plasma	oral, 5 mg/kg, lipid-free formulation	–	oral bioavailability	36 ± 3%
O=C1N=C(N2CCOCC2)CN1c1ccc(Cl)cc1	–	beagle dog, both sexes, plasma	oral, 30 mg/kg, day 0, tablets, single dose	–	AUC(0-inf)	101000 ng·h/mL

Some of these lines once more:
SMILES	assay	system	setting	scale	quantity	value
CC(C)[C@H](NC(=O)[C@@H]1CCCN1C(=O)[C@H](CCCNC(=N)N)NC(=O)[C@H](CS)NC(=O)[C@H](Cc1c[nH]c2ccccc12)NC(=O)[C@H](CCCNC(=N)N)NC(=O)[C@@H](Cc1ccccc1)NC(=O)[C@H](Cc1c[nH]cn1)NC(=O)[C@H](CCC(=O)O)NC(=O)[C@H](CS)NC(=O)[C@H](CS)NC(=O)[C@H](CCCCN)NC(=O)[C@@H]1CC(=O)N[C@@H](CCCNC(=N)N)C(=O)N[C@@H](C(C)C)C(=O)N[C@@H](CC(=O)O)C(=O)N[C@H](Cc2ccc(O)cc2)C(=O)N1)C(N)=O [technetium-99m labelled]	–	C57 mouse, female, B16/F1 melanoma, blood	intravenous, 2 h, together with: NDP-MSH 10 µg co-injected	–	tissue uptake	0.55 ± 0.35 %ID/g
Cn1nnc2c(C(N)=O)ncn2c1=O	–	FVB mice, all strains	intravenous, 50 mg/kg	–	plasma half-life	0.7 h
Cc1c2c(n(-c3ccc(Cl)cc3Cl)c1-c1ccc(OS(=O)(=O)CCC(F)(F)F)cc1)CCN(N1CCCCC1)C2=O	–	cynomolgus monkey 4, plasma	intravenous infusion, 0.2 mg/kg, 90 min, PET study midpoint	–	plasma concentration	57 nM
O=C(NC[C@H]1CN(c2ccc(N3CCOCC3=O)cc2)C(=O)O1)c1ccc(Cl)s1	–	Sprague-Dawley rat, male, plasma	oral, 10 mg/kg, together with: naringenin 10 mg/kg/day oral, 2 weeks	–	MRT(0-t)	6.53 ± 1.41 h
